# Assay results collected from several papers.
# Parts stem from different laboratories: compare values within a part only. Substitutions count along the parent as printed.

# Sample 1
# Target: CCNE2, cyclin fold, Cln2 fusion (human)
# Technique: yeast growth competition, sequencing
# Medium: yeast
# Setting: weak parent motif
# Reference: not given
# Direction: higher = stronger binding
# Parent: RRM2 docking peptide (human); SKTARRIFQEPTE; partner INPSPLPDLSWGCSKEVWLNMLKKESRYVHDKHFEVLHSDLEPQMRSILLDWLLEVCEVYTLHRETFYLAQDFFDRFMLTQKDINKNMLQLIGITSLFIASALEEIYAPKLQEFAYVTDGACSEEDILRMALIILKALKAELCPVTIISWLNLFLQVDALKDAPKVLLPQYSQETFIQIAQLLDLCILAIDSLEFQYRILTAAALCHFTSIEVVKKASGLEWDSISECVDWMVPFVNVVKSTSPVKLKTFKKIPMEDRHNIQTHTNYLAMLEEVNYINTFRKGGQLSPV
Substitution,normalised enrichment score
T12A,0.396
Q9A,0.821
E10A,0.62
I7A,0.216
S1A,0.458
F8A,0.371

# Sample 2
# Target: Histone acetyltransferase KAT6A, winged helix 1, GST fusion (KAT6A, Homo sapiens, UniProt Q92794, residues 1-85)
# Technique: protein binding microarray
# Molecule type: double-stranded DNA, one strand shown
# Medium: in vitro
# Concentration: not given
# Setting: 8-mer, flanks averaged, mean of 2 arrays, mostly near background
# Reference: not given
# Direction: higher = stronger binding
# Construct (chain): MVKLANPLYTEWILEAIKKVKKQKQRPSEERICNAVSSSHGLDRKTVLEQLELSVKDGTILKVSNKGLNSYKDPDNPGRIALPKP
Sequence,E-score
CTGCCGGC,0.418
AAGGGTGC,-0.067
CTTACTTA,-0.138
CTATTTAC,-0.0499
CGACGGAG,0.334
ACGTCACC,-0.0313
CATCGAGC,0.011
AACCAGTT,-0.158
CGGGCATA,0.245
ATAACCGC,0.134
AAAACGTT,-0.00935
ACACGATA,-0.123
CCCATTAC,-0.0642
CAGGCGCC,0.177
CGAATCAC,-0.0804
ACAAGCCC,-0.0274
AGTATATA,0.0197
GGCAACAA,-0.0926
ACAAATAG,-0.0553

# Sample 3
# Target: ABI1, truncated, D143A, DHFR fusion (Arabidopsis thaliana)
# Technique: DHFR PCA, deep sequencing
# Medium: yeast
# Setting: methotrexate growth selection, single substitutions
# Together with: (+)-ABA 1.4 µM
# Reference: wild-type fitted maximum
# Direction: higher = stronger binding
# Parent: PYL1, truncated, DHFR fusion (Arabidopsis thaliana); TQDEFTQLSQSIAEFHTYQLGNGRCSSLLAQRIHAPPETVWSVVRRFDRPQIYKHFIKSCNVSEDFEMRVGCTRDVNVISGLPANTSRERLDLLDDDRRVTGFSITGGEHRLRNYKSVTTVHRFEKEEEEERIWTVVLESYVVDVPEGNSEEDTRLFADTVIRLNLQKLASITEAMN; partner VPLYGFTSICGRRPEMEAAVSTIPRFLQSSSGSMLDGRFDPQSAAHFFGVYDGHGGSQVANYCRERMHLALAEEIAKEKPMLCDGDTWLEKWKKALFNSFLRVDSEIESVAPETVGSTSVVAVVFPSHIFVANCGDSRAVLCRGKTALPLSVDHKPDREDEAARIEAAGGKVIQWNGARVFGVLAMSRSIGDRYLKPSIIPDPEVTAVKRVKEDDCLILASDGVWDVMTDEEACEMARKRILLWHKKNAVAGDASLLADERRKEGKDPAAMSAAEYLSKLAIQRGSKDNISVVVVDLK
Substitution,relative binding score [%]
K58Y,11.2
I133A,78.9
Y18A,4.88
A170S,11.1
T86N,77.7
D96Y,13
Y53I,-5.99
I57F,-0.222
R163E,13.8
Y18T,11.8
S150C,27.6
L93F,37.9
H110T,33.7
E152G,24.4
L28I,55.5
F56R,3.46
N149H,22.1
T1M,66.7
F56P,0.195

# Sample 4
# Target: RNA binding protein fox-1 homolog 2, RRM domain, GST-SBP tag (RBFOX2, Homo sapiens, UniProt O43251-10, residues 100-194)
# Technique: RNA Bind-n-Seq
# Molecule type: RNA
# Medium: in vitro
# Concentration: 365 nM
# Setting: natural RNA segment, single round, ends assumed
# Reference: no-protein control
# Direction: higher = stronger binding
# All sequences stand within: GGGAGUUCUACAGUCCGACGAUC … UGGAAUUCUCGGGUGCCAA
# Construct (chain): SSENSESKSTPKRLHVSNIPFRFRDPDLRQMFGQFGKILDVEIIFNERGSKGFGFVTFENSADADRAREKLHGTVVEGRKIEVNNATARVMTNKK
Sequence,RBNS enrichment (R)
UGGUAUUUUUAUGUUGUCUUAUUUUAGGUAAGCUUCUGUGUAAAGCUAAAAAUCCUGUGAAUACAAUACUAUCCUUUACAGGCAGACAUUAUUGGUAAACAAGAUCUUGC,0.447
UUUUUGAAAGCUUCCUAGCUGGAGGUAUGAUCAGAAAACCAAUUUACUGAAAAACUGCACAAGAAGGUACCGUGAAUGUAAUUUCCUAGCAGGCCACUCUGCAUCUGUUA,0.321
UAUACAGUGAAGACAAACCAAAUACUUUUCACCAUUGAACUAUCUGUACAUUAUCUUUGGUAACACUAGACUAGUGUAGUCUUGGGGAACACACCGAGGAAACAUGUAGC,0.361
UUUUAGGAAUACGGGGAGUGAAGGAAGGCCGGCAGGCAUCUCCAUGCAACUAGAUGGUUUGUUUGUUUGUUUGUUUGUUUGUUGUUCAUUUUGUUGUGUUUUUUGAGACA,10.8
UUAAAUAUUAAUCAACUUUCCUUAAAAUAAAUAGCCUCUUAGGUAAAAAUAUAAGAACUUGAUAUAUUUCAUUCUCUUAUAUAGUAUUCAUUUUCCUACCUAUAUUACAC,1.04
ACAAUCCAUGGGGGCGCUUAGUGGAAGGAUUAAUAUUAUGUUUAAGGGAAUAGUUUAUAUGGACCUUUUUGUCAACAAUAAGCUAUUGUAAAGAUAUUUAAUGUUCUGUU,0.323
UCAAAGCCACCUACGGCAGGGACACACUCGUGAGCAUGUGUGGCCUGCAGUUCAGGUGAUACAUUUACCAGUGUUCUUGUUUGUGUGGUGCCAGGAAAUUGAUUUUGGAA,1.83
UGCAAUACCUGCUUAUAUCAUGUAGAAAAGCUUAGCAAUUAUUAAUUUUUCUUUUAUUUUUUUUUAUUUGACCAAAGUCGGUGCUGCACUUGACGCAGUGUGUUUUAGGU,0.889
AGGGGUAACCUGCUUACAUCUGGACUUUAGAAUCUGGCACACAACAAAAGUGCCUGGCAUCCACUACUGCUGCCUUUCAUUUAUAAUAAUAGCCCUUCCAUCUGGCAGUG,0.381
ACAGGGACCUUCUGCACUCCAUCCAUAAUAGCCUUUGGUACCUUCCAGAGGAGUCCUUCCCGAGAGCUGGCAAGUCUUUGAGCUGUAGCUUGAAUGGGCUGUCGGGGGAC,1.23
UUACUAGAUCUGGAGGCAACCACAGGACACUAAACUUCUCCCAGCCUCUUCAGGAAAGAAACCUCAUUCUUUGGCAAGCAGGAGGUGACACUAGAUGGCUGUGAAUGUGA,0.518
UUUGUUUAUACUUUAAUUACAAAACUAUUUUUUUUAACUUCCUACAUUGUUUUCCUACUUUUUUGUUGUUGGAUUAUGUAACUUUUCCUAAGUUCAGAAGUCUUAAGUGU,1.11

# Sample 5
# Target: UBE2E1 UBC core domain (UniProt P51965)
# UniProt P51965, sequence (whole entry, looked up): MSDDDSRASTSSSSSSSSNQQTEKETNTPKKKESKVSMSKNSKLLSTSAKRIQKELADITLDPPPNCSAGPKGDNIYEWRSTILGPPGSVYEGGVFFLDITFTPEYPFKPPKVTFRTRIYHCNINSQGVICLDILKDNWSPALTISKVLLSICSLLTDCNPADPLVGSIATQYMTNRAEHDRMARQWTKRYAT
# Technique: yeast two-hybrid
# Medium: yeast
# Setting: mostly zero background
# Reference: not given
# Direction: higher = stronger interaction
# B1: MSL2 RING domain (UniProt Q9HCI7); chain LLPYFRQSLSCCVCGHLLQDPIAPTNSTCQHYVCKTCKGKKMMMKPSCSWCKDYEQFEENKQ
# B2: TRIM52 RING domain (UniProt Q96A61); chain PMQTLQEEAVCAICLDYFKDPVSISCGHNFCRGCVTQLWSKEDEEDQNEEEDEWEEEEDEEAV
# B3: RNF112 RING domain (UniProt Q9ULX5); chain QPMAPRELPTCSICLERLRDPISLDCGHDFCIRCFSTHRLPGCEPPCCPECRKICKQKRGLR
# B4: RNF32 RING domain (UniProt Q9H0A6); chain SLLQGDSVQPCPICKEEFELRPQVLLSCSHVFHKACLQAFEKFTNKKTCPLCRKNQYQTRVIH
# B5: ANKIB1 RING domain (UniProt Q9P2G1); chain LSPGDLDTSLCDICMCSISVFEDPVDMPCGHDFCRGCWESFLNLKIQEGEAHNIFCPAYDCFQLVPVDIIE
# B6: RFPL2 RING domain (UniProt O75678); chain MAALFQEASSCPVCSDYLEKPMSLECGCAVCLKCINSLQKEPHGEDLLCCCSSMVSRKNKIRR
# B7: RNF5 RING domain (UniProt Q99942); chain ERGGAGATFECNICLETAREAVVSVCGHLYCWPCLHQWLETRPERQECPVCKAGISREKVVP
# B8: TRIM10 RING domain (UniProt Q9UDY6); chain SVTSLADEVNCPICQGTLREPVTIDCGHNFCRACLTRYCEIPGPDLEESPTCPLCKEPFRPGSFRP
# B9: TRIM3 RING domain (UniProt O75382); chain VQPMDKQFLVCSICLDRYQCPKVLPCLHTFCERCLQNYIPAQSLTLSCPVCRQTSILPEQGV
# B10: PEX2 RING domain (UniProt P28328); chain DNTLATSGKECALCGEWPTMPHTIGCEHIFCYFCAKSSFLFDVYFTCPKCGTEVHSLQPLK
Sequence,lacZ reporter activity
B1 (MSL2 RING domain),0
ISNDSETLEECMVCSDMKRDTLFGPCGHIATCSLCSPRVKKCLICKEQVQSRTKIE (MIB1 RING domain (UniProt Q86YT6)),0
B2 (TRIM52 RING domain),0
B3 (RNF112 RING domain),0
B4 (RNF32 RING domain),0
B5 (ANKIB1 RING domain),0
B6 (RFPL2 RING domain),0
B7 (RNF5 RING domain),0
B8 (TRIM10 RING domain),0
FLKKLEQSFMCVCCQELVYQPVTTECFHNVCKDCLQRSFKAQVFSCPACRHDLGQNYIMI (UHRF2 RING domain (UniProt Q96PU4)),0
B9 (TRIM3 RING domain),0
B10 (PEX2 RING domain),0
QLQDEEDDSLCRICMDAVIDCVLLECGHMVTCTKCGKRMSECPICRQYVVRAVHVF (RNF34 RING domain (UniProt Q969K3)),0
SYEDKSNDFVCPICFDMIEEAYMTKCGHSFCYKCIHQSLEDNNRCPKCNYVVDNIDHLY (COP1 RING domain (UniProt Q8NHY2)),0
KIKDLNEHIVCCLCAGYFVDATTITECLHTFCKSCIVKYLQTSKYCPMCNIKIHETQPLL (PCGF1 RING domain (UniProt Q9BSM1)),0

# Sample 6
# Target: Sal-like protein 4, full length isoform A (SALL4, Homo sapiens, UniProt Q9UJQ4, residues 1-1053)
# UniProt Q9UJQ4, sequence (whole entry, looked up): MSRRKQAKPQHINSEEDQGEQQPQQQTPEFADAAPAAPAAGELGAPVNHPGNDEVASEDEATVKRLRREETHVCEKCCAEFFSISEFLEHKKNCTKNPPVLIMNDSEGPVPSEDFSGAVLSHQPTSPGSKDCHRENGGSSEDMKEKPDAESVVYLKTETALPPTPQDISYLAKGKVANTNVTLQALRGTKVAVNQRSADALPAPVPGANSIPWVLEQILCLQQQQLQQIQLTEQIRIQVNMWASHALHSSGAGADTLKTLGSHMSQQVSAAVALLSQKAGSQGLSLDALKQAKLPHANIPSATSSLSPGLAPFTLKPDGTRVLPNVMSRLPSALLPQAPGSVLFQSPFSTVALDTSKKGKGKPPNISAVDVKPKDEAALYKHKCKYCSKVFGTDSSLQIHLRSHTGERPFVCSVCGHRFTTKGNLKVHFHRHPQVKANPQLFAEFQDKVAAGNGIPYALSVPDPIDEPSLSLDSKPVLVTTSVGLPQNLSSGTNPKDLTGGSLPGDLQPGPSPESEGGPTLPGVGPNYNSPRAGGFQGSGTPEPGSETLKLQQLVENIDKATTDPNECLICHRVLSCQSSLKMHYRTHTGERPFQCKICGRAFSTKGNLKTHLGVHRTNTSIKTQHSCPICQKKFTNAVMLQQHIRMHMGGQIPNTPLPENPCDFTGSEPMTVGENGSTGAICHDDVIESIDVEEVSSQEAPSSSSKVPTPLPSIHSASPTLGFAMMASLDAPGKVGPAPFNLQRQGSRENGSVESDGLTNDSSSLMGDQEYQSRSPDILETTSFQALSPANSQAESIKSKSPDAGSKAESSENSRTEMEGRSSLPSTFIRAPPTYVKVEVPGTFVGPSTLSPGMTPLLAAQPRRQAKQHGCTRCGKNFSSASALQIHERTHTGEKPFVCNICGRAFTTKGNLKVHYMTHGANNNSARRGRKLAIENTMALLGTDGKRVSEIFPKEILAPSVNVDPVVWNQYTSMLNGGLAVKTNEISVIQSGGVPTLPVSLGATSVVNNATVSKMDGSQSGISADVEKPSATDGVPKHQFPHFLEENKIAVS
# Technique: universal PBM
# Molecule type: double-stranded DNA, one strand shown
# Medium: in vitro
# Concentration: 600 nM
# Setting: 8-mer, flanks averaged, mean of replicates
# Direction: higher = stronger binding
Sequence,E-score
ATTGTGAC,0.0323
CGGACAAC,-0.107
ATTTACAG,0.237
GTTCTCGA,0.0317
CTACACTA,0.153
AGCAGCCG,-0.317
ACGCTCTC,-0.204
ACGCATAA,0.203
CCCGGAGC,-0.33
AAGGGGAG,-0.256
ATCCCACA,0.0163
CCAACGCC,-0.271
CTGCGGCA,-0.175
GAAAGCGA,-0.0794
AGCCTTGC,-0.305
CCCTGGAG,-0.302
